# Assay results of several laboratories.
# Compare with care: the assays were run in different laboratories. Numbers after ± are the reported error.
SMILES,target or system,assay,test system,setting,quantity,result
c1ccc(-c2nc(-c3ccc4ccccc4c3)c[nH]2)cc1,Schistosoma mansoni,,adult male worms,100 µM,worm killing,12%
Oc1cc(C(F)(F)F)ccc1-c1nc2c(C(F)(F)F)cc(C(F)(F)F)cc2[nH]1,Klebsiella pneumoniae,colistin potentiator,"KP I2, colistin-resistant",5 µM,colistin MIC,2 mg/L
O=C1CC(c2ccc(O)cc2)Oc2cc(O)cc([O][Ga+][O]c3cc(O)cc4c3C(=O)CC(c3ccc(O)cc3)O4)c21 (stereo not shown),Pseudomonas aeruginosa,"significantly changed metabolites, GC-MS metabolomics",,"16 µM, 4 h",number of metabolites,61
[64Cu+2].c1cnc(CNCc2ccc(CN3CCCN4CCNCCCN(CC4)CC3)cc2)nc1,CXCR4,,"NOD/SCID mouse, U87 and U87-stb-CXCR4 xenografts, muscle","iv, 30 min, ex vivo",tissue uptake,0.49 ± 0.03 %ID/g
Oc1ccc(C(F)(F)F)cc1-c1nc2c(Cl)cc(Cl)cc2[nH]1,Klebsiella pneumoniae,colistin potentiator,"KP F9, colistin-resistant",5 µM,colistin MIC,1 mg/L
CN(C)CCSC(=S)N1CCN(C(=O)/C=C/c2coc3ccc(F)cc3c2=O)CC1,tomato spotted wilt virus,"viral infection, half-leaf method",Nicotiana glutinosa,500 µg/mL,curative effect,64.2 ± 6.1%
COc1ccc(C2CC(c3ccc(C)cc3)=Nc3ccccc3S2)cc1 (stereo not shown),,,"Wistar rat, STZ-induced diabetes, serum","oral, 10 mg/kg once daily, 28 days",AST (SGOT),24 ± 2.11 IU/L
O=C(CCCN1C(=O)c2cccc3cccc(c23)C1=O)NO,Cryptosporidium parvum,"Western blot, refers to: H3K9ac",,"10 µM, 90 min, sporozoites",histone acetylation,no effect
[64Cu+2].c1ccc(CNCc2ccc(CN3CCCN4CCNCCCN(CC4)CC3)cc2)nc1,CXCR4,,"NOD/SCID mouse, U87 and U87-stb-CXCR4 xenografts, bladder","iv, 240 min, ex vivo",tissue uptake,2.27 ± 0.23 %ID/g
CN(C)CCCSC(=S)N1CCN(C(=O)/C=C/c2coc3ccccc3c2=O)CC1,tomato spotted wilt virus,"viral infection, half-leaf method",Nicotiana glutinosa,500 µg/mL,inactivation effect,77.3%
CCC12CCc3c(c4ccccc4n3C)CCN(CC3OC31)C2 (stereo not shown),Danio rerio,,larvae,"6, 12 and 25 µM, together with: LPS 2.5 mg/mL",swimming distance,increased
CN(C)CCSC(=S)N1CCN(C(=O)/C=C/c2coc3cc(F)ccc3c2=O)CC1,tomato spotted wilt virus,"viral infection, half-leaf method",Nicotiana glutinosa,500 µg/mL,protective effect,62.7 ± 3.5%
CN1C(=O)[C@@H](Cc2ccc(O)cc2)NC(=O)CNC(=O)[C@H](Cc2ccc3ccccc3c2)NC(=O)[C@H](CCCNC(=N)N)NC(=O)[C@H]1CCCNC(=O)c1ccc(CNC(=O)CN2CCN(CC(=O)O)CCN(CC(=O)O)CCN(CC(=O)O)CC2)cc1 [gallium-68 labelled],,extrapolated to adult male,"C57BL/6 mice, pancreas",,absorbed dose coefficient,0.0117 mGy/MBq

# Some of these lines once more:
SMILES,target or system,assay,test system,setting,quantity,result
CN(C)CCCSC(=S)N1CCN(C(=O)/C=C/c2coc3ccccc3c2=O)CC1,tomato spotted wilt virus,"viral infection, half-leaf method",Nicotiana glutinosa,500 µg/mL,inactivation effect,77.3%
